# Measurements of several laboratories.
# Each numbered part is a random draw from the data of one study; scales do not carry over between parts. Substitutions count along the parent as printed.

# Set 1
# Target: Interferon regulatory factor 3, full length, phosphomimetic (IRF3, Homo sapiens, UniProt Q14653, residues 1-427, S386D/S396D/S398D/S402D/T404D/S405D)
# Sequence of UniProt Q14653 (whole entry, unmodified, looked up): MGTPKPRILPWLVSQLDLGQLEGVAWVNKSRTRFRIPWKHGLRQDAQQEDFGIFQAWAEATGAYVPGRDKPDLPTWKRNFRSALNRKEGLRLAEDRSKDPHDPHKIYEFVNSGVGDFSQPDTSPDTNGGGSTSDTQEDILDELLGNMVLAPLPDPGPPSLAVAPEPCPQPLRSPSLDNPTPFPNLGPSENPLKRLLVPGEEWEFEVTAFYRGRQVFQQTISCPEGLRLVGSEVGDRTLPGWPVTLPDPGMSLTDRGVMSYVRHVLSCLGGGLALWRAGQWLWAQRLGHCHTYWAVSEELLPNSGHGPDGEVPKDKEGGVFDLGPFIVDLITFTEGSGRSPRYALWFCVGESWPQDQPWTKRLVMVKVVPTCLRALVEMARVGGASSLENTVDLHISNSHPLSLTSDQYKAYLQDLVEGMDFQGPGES
# Method: protein-binding microarray
# Form: double-stranded DNA, one strand shown
# Medium: in vitro
# Concentration: 2540 nM top
# Notes: 60-bp whole probe
# Added: salmon DNA 0.4 mg/ml
# Reference: random background probes
# Direction: higher = stronger binding
# All sequences stand within: GCCTAGCAC … GTCTTGATTCGCTTGACGCTGCTG
Sequence,fitted relative affinity
TTAGGACCGCTTCTCCTTTAGTGCTAG,0.535 z-score
TTAGCTTTCGGTATCGGTTAGTGCTAG,6.13 z-score
TCAATTGTGGGTCTTGCACTGTGCTAG,-0.609 z-score
TTATATCTCAGTCTCGATTAGTGCTAG,0.946 z-score
TTAGATATCGGGTCTGGATTAGTGCTA,0.239 z-score
GACGGACTGTGTCTCGGGACGTGCTAG,-0.49 z-score
CCCAATTCTCTTTTCACTTTGTGCTAG,2.3 z-score
GACGGTTACCTACTGCTGACGTGCTAG,1.66 z-score

# Set 2
# Target: CCNA1, cyclin fold, Cln2 fusion (human)
# Method: yeast growth competition, sequencing
# Medium: yeast
# Notes: weak parent motif
# Reference: not given
# Direction: higher = stronger binding
# Starting sequence: CDKN1A docking peptide (human); SKACRRLFGPVDS; partner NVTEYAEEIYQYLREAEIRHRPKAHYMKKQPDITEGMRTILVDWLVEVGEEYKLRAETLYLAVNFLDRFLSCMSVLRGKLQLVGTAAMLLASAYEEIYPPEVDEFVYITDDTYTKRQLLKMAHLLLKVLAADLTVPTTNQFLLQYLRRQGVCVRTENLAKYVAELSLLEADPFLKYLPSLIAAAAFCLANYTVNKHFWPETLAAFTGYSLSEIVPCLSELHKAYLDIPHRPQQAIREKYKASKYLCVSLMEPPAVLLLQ
Change,normalised enrichment score
SKACRRLFIPVDS [G9I],0.708
SKGCRRLFGPVDS [A3G],0.0301
SKACRRLFGPGDS [V11G],0.399
SKACRRLFGPVLS [D12L],-0.114
SKACRNLFGPVDS [R6N],0.864
SKACRRLFGPWDS [V11W],0.741
SRACRRLFGPVDS [K2R],0.452
SKACRKLFGPVDS [R6K],0.681
SKACIRLFGPVDS [R5I],-0.182

# Set 3
# Target: Ras GTPase-activating protein-binding protein 1, full length (G3BP1, Homo sapiens, UniProt Q13283)
# Sequence of UniProt Q13283 (whole entry, looked up): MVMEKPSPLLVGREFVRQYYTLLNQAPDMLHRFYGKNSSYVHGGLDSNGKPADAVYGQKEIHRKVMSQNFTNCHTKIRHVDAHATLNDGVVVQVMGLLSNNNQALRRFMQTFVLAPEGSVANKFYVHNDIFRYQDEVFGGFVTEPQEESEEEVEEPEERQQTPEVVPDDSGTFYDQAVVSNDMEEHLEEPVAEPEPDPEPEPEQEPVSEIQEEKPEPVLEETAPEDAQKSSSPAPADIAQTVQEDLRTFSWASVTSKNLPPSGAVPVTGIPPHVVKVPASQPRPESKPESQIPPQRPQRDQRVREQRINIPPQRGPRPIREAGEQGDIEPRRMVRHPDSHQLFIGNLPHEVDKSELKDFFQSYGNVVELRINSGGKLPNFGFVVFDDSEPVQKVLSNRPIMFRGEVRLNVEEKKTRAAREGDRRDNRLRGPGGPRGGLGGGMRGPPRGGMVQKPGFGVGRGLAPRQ
# Method: RNA Bind-n-Seq
# Form: RNA
# Medium: in vitro
# Concentration: 200 nM
# Notes: whole 134-nt RNA, ends assumed
# Added: 150 mM KCl
# Reference: input library
# Direction: higher = stronger binding
Sequence,log2 enrichment
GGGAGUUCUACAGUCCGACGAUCUGGGAGGUGGAUUUUGUUUAUUUUUUUAGCUCAUUUCCAGGCGUGGGAAUUUUUUUUUAAUAUGUGUCAUGAAUAAAGUUGUUUUUGAAAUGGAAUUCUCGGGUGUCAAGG,0.127
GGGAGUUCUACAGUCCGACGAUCUCAAGUCCUGUGCUACACAUCGUAUGUACCGAAUCGGGGAAGGGGAAGGGGAAGGAAAGUAUUAUGUUACGCCGUUCGGAUCUGCACUUCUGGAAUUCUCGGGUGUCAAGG,0.135
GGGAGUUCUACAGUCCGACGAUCGCAGGAAGCAAAAACAAAUGGAAAUGCUUCGGAUAGUGGCAGGGGUGGGGGUUGCUAAGGAAAGGGUGGGAUGGGAGUGGGUAAAGAGUUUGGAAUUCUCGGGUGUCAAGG,0.952
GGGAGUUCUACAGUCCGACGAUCUGUGCUACACAUCGUAUGUACCGAAUCGGGGAAAAAAAGGGGAAAAAGGGGUUUUUUUGGGGAAAGUAUUAUGUUACGCCGUUCGGAUCUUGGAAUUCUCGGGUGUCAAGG,-0.135
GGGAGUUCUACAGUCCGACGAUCAAGUCCUGUGCUACACAUCGUAUGUACCGAAUCGGGAGGGUUUUUUUGGGUUUGGGAAAGUAUUAUGUUACGCCGUUCGGAUCUGCACUUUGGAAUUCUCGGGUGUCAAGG,0.0739
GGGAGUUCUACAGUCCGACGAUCGUCCUGUGCUACACAUCGUAUGUACCGAAUCGGGUUUUUGGUUUUUGGGGUUUUUGGGGAAAGUAUUAUGUUACGCCGUUCGGAUCUGCAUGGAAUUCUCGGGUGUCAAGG,-0.521

# Single results of other studies
Molecule,target,test,test system,conditions,scale,quantity,result
"PhoQ, residues 284 288 289 292 302 303 TGYLSA","PhoP, residues 12 14 15 18 19 SQCLL (Escherichia coli, UniProt P23836)","Sort-seq, refers to: YFP reporter",E. coli,"PhoQ-PhoP variant library, added: 10 µM Mg2+","reference: high Mg2+ state, higher = stronger signaling",fold induction,2.1
